Measurements pooled from the literature.
Protocols differ between the studies behind these lines.
Method: steady-state kinetics
B1: Mgst1 unactivated (Rattus norvegicus, UniProt P08011); chain ADLKQLMDNEVLMAFTSYATIILAKMMFLSSATAFQRLTNKVFANPEDCAGFGKGENAKKFLRTDEKVERVRRAHLNDLENIVPFLGIGLLYSLSGPDLSTALIHFRIFVGARIYHTIAYLTPLPQPNRGLAFFVGYGVTLSMAYRLLRSRLYL
B2: enzyme (Bacillus pumilus, UniProt A8FFI9); chain EARSIAWSVDEFFKNREGTFVIQEVKEKSPWVYNKKRAKERFAPQSTFKVANALIGLQTGAVRDEYDIKYWDGVKREIDNWNRDHTLGSGMRDSVVWYYQAMARDIGEERMNHWVKAIHYGNKDISGGIDQFWLSSTLRISPIEQVRFLKQLYEETLPFDLKNMRTVKRMMVQEEEKHATLYGKTGSGSDIGWYVGFIKHEHKTYILATNIKGTGIEAKDITYRILKKYHLMEASV
B3: FMO3 V277A (Homo sapiens, UniProt P31513); chain GKKVAIIGAGVSGLASIRSCLEEGLEPTCFEKSNDIGGLWKFSDHAEEGRASIYKSVFSNSSKEMMCFPDFPFPDDFPNFMHNSKIQEYIIAFAKEKNLLKYIQFKTFVSSVNKHPDFATTGQWDVTTERDGKKESAVFDAVMVCSGHHVYPNLPKESFPGLNHFKGKCFHSRDYKEPGVFNGKRVLVVGLGNSGCDIATELSRTAEQVMISSRSGSWVMSRVWDNGYPWDMLLVTRFGTFLKNNLPTAISDWLYVKQMNARFKHENYGLMPLNGALRKEPVFNDELPASILCGIVSVKPNVKEFTETSAIFEDGTIFEGIDCVIFATGYSFAYPFLDESIIKSRNNEIILFKGVFPPLLEKSTIAVIGFVQSLGAAIPTVDLQSRWAAQVIKGTCTLPSMEDMMNDINEKMEKKRKWFGKSETIQTDYIVYMDELSSFIGAKPNIPWLFLTDPKLAMEVYFGPCSPYQFRLVGPGQWPGARNAILTQWDRSLKPMQTRVVGRLQKPCFFFHWLKLFAIPILLIAVFLVLT
B4: enzyme R447A (Sinorhizobium meliloti, UniProt Q92UV7); chain MTNAEVTIAVRHEPMRIAGRLVDTDDRVEVRYPWNDTVVGTVPAGRAEHAREAFAIAAAYQPKLTRYERQKILLATAEALAARKEEISDVITLELGISKADSLYEVGRAFDVFTLAGQMCIRDDGEIFSCDLTPHGKARKIFTMREPLTAISAITPFNHPLNMVAHKVAPAIATNNCVVVKPTELTPMTALLLADILYEAGLPPEMLSVVTGWPADIGMEMITNPHVDLVTFTGSVPVGKLIAANAHYKRQVLELGGNDPLIILNDLSDDDLARAADLAVAGATKNSGQRCTAVKRILCQESVADRFVPLVLERAKRLRFGDPMDRSTDLGTVIHEKAAALFEERVMRAAEEGADILYHPGRSGALLPPIVVDRVPHQSDLVLEETFGPIIPIVRVPDDDDATITLSNSTAFGLSSGVCTNDYRRMQKYIAGLKVGTVNIWEVPGYAIEMSPFGGIKDSGNGYKEGVIEAMKSFTNVKTFSLPWP
B5: MTRR A129T (Homo sapiens, UniProt Q9UBK8); chain MRRFLLLYATQQGQAKAIAEEICEQAVVHGFSADLHCISESDKYDLKTETAPLVVVVSTTGTGDPPDTARKFVKEIQNQTLPVDFFAHLRYGLLGLGDSEYTYFCNGGKIIDKRLQELGARHFYDTGHTDDCVGLELVVEPWIAGLWPALRKHFRSSRGQEEISGALPVASPASSRTDLVKSELLHIESQVELLRFDDSGRKDSEVLKQNAVNSNQSNVVIEDFESSLTRSVPPLSQASLNIPGLPPEYLQVHLQESLGQEESQVSVTSADPVFQVPISKAVQLTTNDAIKTTLLVELDISNTDFSYQPGDAFSVICPNSDSEVQSLLQRLQLEDKREHCVLLKIKADTKKKGATLPQHIPAGCSLQFIFTWCLEIRAIPKKAFLRALVDYTSDSAEKRRLQELCSKQGAADYSRFVRDACACLLDLLLAFPSCQPPLSLLLEHLPKLQPRPYSCASSSLFHPGKLHFVFNIVEFLSTATTEVLRKGVCTGWLALLVASVLQPNIHASHEDSGKALAPKISISPRTTNSFHLPDDPSIPIIMVGPGTGIAPFIGFLQHREKLQEQHPDGNFGAMWLFFGCRHKDRDYLFRKELRHFLKHGILTHLKVSFSRDAPVGEEEAPAKYVQDNIQLHGQQVARILLQENGHIYVCGDAKNMAKDVHDALVQIISKEVGVEKLEAMKTLATLKEEKRYLQDIWS
B6: SUOX P184A (Homo sapiens, UniProt P51687); chain ESTHIYTKEEVSSHTSPETGIWVTLGSEVFDVTEFVDLHPGGPSKLMLAAGGPLEPFWALYAVHNQSHVRELLAQYKIGELNPEDKVAPTVETSDPYADDPVRHAALKVNSQRPFNAEPPPELLTENYITPNPIFFTRNHLPVPNLDPDTYRLHVVGAPGGQSLSLSLDDLHNFPRYEITVTLQCAGNRRSEMTQVKEVKGLEWRTGAISTARWAGARLCDVLAQAGHQLCETEAHVCFEGLDSDPTGTAYGASIPLARAMDPEAEVLLAYEMNGQPLPRDHGFPVRVVVPGVVGARHVKWLGRVSVQPEESYSHWQRRDYKGFSPSVDWETVDFDSAPSIQELPVQSAITEPRDGETVESGEVTIKGYAWSGGGRAVIRVDVSLDGGLTWQVAKLDGEEQRPRKAWAWRLWQLKAPVPAGQKELNIVCKAVDDGYNVQPDTVAPIWNLRGVLSNAWHRVHVYVSP
B7: mtnK (Bacillus subtilis, UniProt O31663); chain MGVTKTPLYETLNESSAVALAVKLGLFPSKSTLTCQEIGDGNLNYVFHIYDQEHDRALIIKQAVPYAKVVGESWPLTIDRARIESSALIRQGEHVPHLVPRVFYSDTEMAVTVMEDLSHLKIARKGLIEGENYPHLSQHIGEFLGKTLFYSSDYALEPKVKKQLVKQFTNPELCDITERLVFTDPFFDHDTNDFEEELRPFVEKLWNNDSVKIEAAKLKKSFLTSAETLIHGDLHTGSIFASEHETKVIDPEFAFYGPIGFDVGQFIANLFLNALSRDGADREPLYEHVNQVWETFEETFSEAWQKDSLDVYANIDGYLTDTLSHIFEEAIGFAGCELIRRTIGLAHVADLDTIVPFDKRIGRKRLALETGTAFIEKRSEFKTITDVIELFKLLVKE
B8: SUOX R529M/V531M/Y400N (Homo sapiens, UniProt P51687); chain ESTHIYTKEEVSSHTSPETGIWVTLGSEVFDVTEFVDLHPGGPSKLMLAAGGPLEPFWALYAVHNQSHVRELLAQYKIGELNPEDKVAPTVETSDPYADDPVRHPALKVNSQRPFNAEPPPELLTENYITPNPIFFTRNHLPVPNLDPDTYRLHVVGAPGGQSLSLSLDDLHNFPRYEITVTLQCAGNRRSEMTQVKEVKGLEWRTGAISTARWAGARLCDVLAQAGHQLCETEAHVCFEGLDSDPTGTAYGASIPLARAMDPEAEVLLAYEMNGQPLPRDHGFPVRVVVPGVVGARHVKWLGRVSVQPEESYSHWQRRDNKGFSPSVDWETVDFDSAPSIQELPVQSAITEPRDGETVESGEVTIKGYAWSGGGRAVIRVDVSLDGGLTWQVAKLDGEEQRPRKAWAWRLWQLKAPVPAGQKELNIVCKAVDDGYNVQPDTVAPIWNLMGMLSNAWHRVHVYVSP
Sequence of UniProt Q9STE6 (whole entry, looked up): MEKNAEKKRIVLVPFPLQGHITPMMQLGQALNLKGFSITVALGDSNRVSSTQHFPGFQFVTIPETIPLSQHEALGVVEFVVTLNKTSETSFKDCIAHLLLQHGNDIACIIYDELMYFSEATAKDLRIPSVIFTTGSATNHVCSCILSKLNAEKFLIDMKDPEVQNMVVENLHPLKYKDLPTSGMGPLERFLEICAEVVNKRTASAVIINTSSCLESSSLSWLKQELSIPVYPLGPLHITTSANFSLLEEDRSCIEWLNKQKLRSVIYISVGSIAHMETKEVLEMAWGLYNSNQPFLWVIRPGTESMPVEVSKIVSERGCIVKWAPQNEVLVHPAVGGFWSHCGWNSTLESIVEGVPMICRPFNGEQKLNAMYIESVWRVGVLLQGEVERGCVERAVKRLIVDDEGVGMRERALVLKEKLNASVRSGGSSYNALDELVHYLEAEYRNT
Sequence of UniProt Q9A9H3 (whole entry, looked up): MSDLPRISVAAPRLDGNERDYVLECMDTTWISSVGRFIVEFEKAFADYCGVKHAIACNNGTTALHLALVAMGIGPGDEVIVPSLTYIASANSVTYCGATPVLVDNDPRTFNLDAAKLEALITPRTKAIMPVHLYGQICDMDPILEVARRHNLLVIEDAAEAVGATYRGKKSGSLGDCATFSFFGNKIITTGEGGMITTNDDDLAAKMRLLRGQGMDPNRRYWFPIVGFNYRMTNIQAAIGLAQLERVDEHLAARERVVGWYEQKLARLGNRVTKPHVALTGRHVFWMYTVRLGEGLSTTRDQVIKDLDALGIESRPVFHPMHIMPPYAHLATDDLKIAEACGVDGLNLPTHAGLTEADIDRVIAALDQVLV
Sequence of UniProt O60656 (whole entry, looked up): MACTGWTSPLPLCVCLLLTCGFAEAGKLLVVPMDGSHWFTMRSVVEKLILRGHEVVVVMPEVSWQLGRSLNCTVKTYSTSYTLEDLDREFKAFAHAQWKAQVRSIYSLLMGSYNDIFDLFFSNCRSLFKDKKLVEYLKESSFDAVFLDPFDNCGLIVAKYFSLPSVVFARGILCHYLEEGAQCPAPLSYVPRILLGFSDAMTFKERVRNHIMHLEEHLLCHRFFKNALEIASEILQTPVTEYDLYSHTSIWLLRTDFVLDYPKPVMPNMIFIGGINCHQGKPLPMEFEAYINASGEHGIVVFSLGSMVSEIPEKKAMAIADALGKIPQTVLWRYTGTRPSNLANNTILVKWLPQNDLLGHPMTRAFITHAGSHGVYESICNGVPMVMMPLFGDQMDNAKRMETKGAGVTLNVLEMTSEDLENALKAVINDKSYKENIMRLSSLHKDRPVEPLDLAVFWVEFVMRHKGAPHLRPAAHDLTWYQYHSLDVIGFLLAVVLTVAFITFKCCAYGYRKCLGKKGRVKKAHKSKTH

Substance | substrate | test system | setting | Km [µM]
enzyme (Arabidopsis thaliana, UniProt Q9STE6) | O=c1ccn([C@@H]2O[C@H](CO[P@@](=O)(O)O[P@@](=O)(O)O[C@H]3O[C@H](CO)[C@@H](O)[C@H](O)[C@H]3O)[C@@H](O)[C@H]2O)c(=O)[nH]1 | – | pH 7.5, 25 °C | 8.79
Ptb (Listeria monocytogenes, UniProt Q8Y7B7) | CCC(CC)C(=O)SCCNC(=O)CCNC(=O)[C@H](O)C(C)(C)COP(=O)(O)OP(=O)(O)OC[C@H]1O[C@@H](n2cnc3c(N)ncnc32)[C@H](O)[C@@H]1OP(=O)(O)O | – | pH 7.5, 25 °C, apparent | 43.8
B1 (Mgst1 unactivated) | NC(=O)c1ccc(Cl)c([N+](=O)[O-])c1 | – | pH 6.5, 5 °C, potassium phosphate 0.1 M, unactivated enzyme, together with: GSH 5 mM | 34
B2 (enzyme) | O=C(Cc1cccs1)N[C@@H]1C(=O)N2C(C(=O)O)=C(/C=C/c3ccc([N+](=O)[O-])cc3[N+](=O)[O-])CS[C@H]12 | – | pH 7 | 82
GDP-perosamine synthase (Caulobacter vibrioides, UniProt Q9A9H3) | C[C@H]1O[C@H](OP(=O)(O)OP(=O)(O)OC[C@H]2O[C@@H](n3cnc4c(=O)[nH]c(N)nc43)[C@H](O)[C@@H]2O)[C@@H](O)[C@@H](O)C1=O | – | pH 7.5, room temperature, NaCl 110 mM, ping-pong fit, together with: L-glutamate cosubstrate; 100 µM PLP | 13
B3 (FMO3 V277A) | CN1CCC[C@H]1c1cccnc1 | HEK293 microsomes | 37 °C, not purified, together with: NADPH regenerating system | 700
B4 (enzyme R447A) | NC(=O)c1ccc[n+]([C@@H]2O[C@H](COP(=O)(O)OP(=O)(O)OC[C@H]3O[C@@H](n4cnc5c(N)ncnc54)[C@H](O)[C@@H]3O)[C@@H](O)[C@H]2O)c1 | – | pH 7.5, 30 °C, cofactor varied | 54
B5 (MTRR A129T) | CC1=CC(=O)c2ccccc2C1=O | – | pH 7.5, 37 °C, substoichiometric FMN, together with: NADPH | 7.8
B6 (SUOX P184A) | O=S(O)O | – | pH 8, 25 °C, together with: oxidized cyt c 400 µM | 6
UGT1A9 (Homo sapiens, UniProt O60656) | O=c1cc(-c2ccccc2)oc2cc(O)c(O)cc12 | – | pH 7.4, 37 °C | 4.49
B7 (mtnK) | Nc1ncnc2c1ncn2[C@@H]1O[C@H](COP(=O)(O)OP(=O)(O)OP(=O)(O)O)[C@@H](O)[C@H]1O | – | pH 7.8, 30 °C, together with: 5-methylthioribose | 90
B8 (SUOX R529M/V531M/Y400N) | O=[N+]([O-])O | – | pH 7, 25 °C, together with: dithionite-reduced methyl viologen | 30
